{"data": "Assay results gathered from unrelated publications", "Nuclear receptor subfamily 2 group C member 2 ligand-binding domain": "Nuclear receptor subfamily 2 group C member 2, ligand-binding domain (Homo sapiens, UniProt P49116)", "YWHAG/RELA phospho-Ser45 p65 peptide": "YWHAG/RELA, phospho-Ser45 p65 peptide (Homo sapiens, UniProt P61981+Q04206)", "note": "Compare with care: the assays were run in different laboratories. ± gives the spread as reported.", "sequence of UniProt P49116 (whole entry, looked up)": "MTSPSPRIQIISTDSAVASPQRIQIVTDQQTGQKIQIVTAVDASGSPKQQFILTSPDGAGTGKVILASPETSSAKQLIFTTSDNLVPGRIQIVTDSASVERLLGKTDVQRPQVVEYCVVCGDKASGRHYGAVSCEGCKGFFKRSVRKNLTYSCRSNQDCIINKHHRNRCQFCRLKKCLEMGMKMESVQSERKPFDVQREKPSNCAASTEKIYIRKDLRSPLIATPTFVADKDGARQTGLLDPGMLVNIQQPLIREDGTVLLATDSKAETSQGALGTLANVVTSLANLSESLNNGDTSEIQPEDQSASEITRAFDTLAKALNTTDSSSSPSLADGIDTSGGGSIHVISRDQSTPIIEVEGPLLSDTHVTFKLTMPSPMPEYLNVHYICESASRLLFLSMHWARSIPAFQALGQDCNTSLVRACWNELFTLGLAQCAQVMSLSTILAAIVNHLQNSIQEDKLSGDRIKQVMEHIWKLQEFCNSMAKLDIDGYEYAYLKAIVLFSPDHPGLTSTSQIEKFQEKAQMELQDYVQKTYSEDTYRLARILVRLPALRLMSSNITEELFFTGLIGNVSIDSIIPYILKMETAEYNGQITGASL", "sequence of UniProt P61981 (whole entry, looked up)": "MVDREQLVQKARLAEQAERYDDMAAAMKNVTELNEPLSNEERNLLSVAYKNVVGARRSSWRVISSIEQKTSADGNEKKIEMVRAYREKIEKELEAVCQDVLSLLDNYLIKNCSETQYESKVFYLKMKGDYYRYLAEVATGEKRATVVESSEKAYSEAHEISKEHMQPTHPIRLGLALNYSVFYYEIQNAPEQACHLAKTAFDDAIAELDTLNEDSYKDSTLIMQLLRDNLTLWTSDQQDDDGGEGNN", "sequence of UniProt Q04206 (whole entry, looked up)": "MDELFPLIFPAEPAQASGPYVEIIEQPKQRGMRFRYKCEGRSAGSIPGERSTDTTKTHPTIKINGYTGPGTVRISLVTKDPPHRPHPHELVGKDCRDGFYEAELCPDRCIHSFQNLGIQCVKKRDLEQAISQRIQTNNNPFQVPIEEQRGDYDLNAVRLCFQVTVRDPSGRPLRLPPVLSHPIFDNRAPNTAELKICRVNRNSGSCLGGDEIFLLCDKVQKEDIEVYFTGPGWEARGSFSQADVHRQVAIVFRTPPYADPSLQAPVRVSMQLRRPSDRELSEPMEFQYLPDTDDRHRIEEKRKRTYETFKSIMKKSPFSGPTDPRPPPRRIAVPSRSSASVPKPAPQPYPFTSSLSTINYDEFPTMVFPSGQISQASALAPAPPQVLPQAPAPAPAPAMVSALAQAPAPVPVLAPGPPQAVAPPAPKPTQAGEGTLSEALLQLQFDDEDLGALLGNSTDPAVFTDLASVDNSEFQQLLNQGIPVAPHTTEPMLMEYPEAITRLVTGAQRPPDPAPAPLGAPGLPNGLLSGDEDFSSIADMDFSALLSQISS"}
{"Structure (SMILES)": "CCCc1cc(C)[nH]c(=O)c1CNC(=O)c1cc(-c2ccnc(N3CCN(C)CC3)c2)cc2c1cnn2C(C)C", "target or system": "OCI-Ly1", "setting": "0.5 µM, 120 h", "endpoint": "viability", "result": "91.2%"}
{"Structure (SMILES)": "CCCCCCCC(=O)c1cc(OC)c(OC)c(OC)c1CC(=O)OCC", "target or system": "COS-7", "setting": "10 µM, 24 h, 0.1% DMSO, unit not given", "scale": "relative to: vehicle control", "endpoint": "apoptotic cells", "result": "0.96 ± 0.14"}
{"Structure (SMILES)": "N#Cc1ccc2c(c1)[C@H]1CCCN(C(=O)c3ccc4[nH]cnc4c3)[C@H]1C2", "test": "measured: androstenedione", "system": "human male, Phase II trial", "setting": "oral, 240 mg once daily, HPA axis, mean", "endpoint": "change from baseline", "result": "3.82 nmol/L"}
{"Structure (SMILES)": "CN(C)CCOc1cc(NC(=O)c2cc(Cl)cc(C(=O)Nc3cc(OCCN(C)C)c4ccccc4n3)n2)nc2ccccc12", "target or system": "human telomeric G-quadruplex DNA", "test": "FRET melting", "setting": "1 µM, pH 7.4, together with: 60 mM potassium", "endpoint": "ΔTm", "result": "27.9 ± 0.6 K"}
{"Structure (SMILES)": "C[C@H]1C[C@H]2CSC(N)=N[C@@]2(c2nc(NC(=O)c3ccc(OC(F)F)cn3)cs2)CO1", "test": "measured: Aβ1-40", "system": "healthy adults, plasma", "setting": "5 mg once daily, day 10", "scale": "relative to: placebo", "endpoint": "percent change from baseline", "result": "-58%"}
{"Structure (SMILES)": "O=C(Nc1cc(OCCN2CCCC2)c2ccccc2n1)c1cc(Cl)cc(C(=O)Nc2cc(OCCN3CCCC3)c3ccccc3n2)n1", "target or system": "human telomeric G-quadruplex DNA", "test": "FRET melting", "setting": "1 µM, pH 7.4, together with: 60 mM potassium", "endpoint": "ΔTm", "result": "24.3 ± 0.6 K"}
{"Structure (SMILES)": "O=C([C@@H](Cc1cccc(C(F)(F)F)c1)NS(=O)(=O)c1cc(F)c2c(c1)CCNC2)N1CCCC1", "target or system": "OCI-Ly1", "setting": "0.5 µM, 120 h", "endpoint": "viability", "result": "117%"}
{"Structure (SMILES)": "O=C(O)CNC(=O)Cc1ccccc1", "system": "ventricular cardiomyocytes, C57BL/6 mouse", "setting": "dose not given, 0.368 s", "endpoint": "sarcomere length", "result": "1.72 µm"}
{"Structure (SMILES)": "CCCCc1nc2cc(/C=C/C(=O)NO)ccc2n1CCN(CC)CC", "target or system": "OCI-Ly1", "setting": "1 µM, 120 h", "endpoint": "viability", "result": "1.96%"}
{"Structure (SMILES)": "CC(C)NCC(O)c1ccc(O)c(O)c1 (stereo not shown)", "system": "ventricular cardiomyocytes, C57BL/6 mouse", "setting": "dose not given, 0.864 s", "endpoint": "sarcomere length", "result": "1.5 µm"}
{"Structure (SMILES)": "Cn1cc(-c2ccc(-c3cncc(Cl)c3N3CCC4(CCNC4=O)CC3)cc2)cn1", "target or system": "COLO 205", "test": "microarray, measured: TXNIP", "setting": "concentration not given, 2 h", "scale": "relative to: untreated cells", "endpoint": "fold change in expression", "result": -1.05}
{"Structure (SMILES)": "C[C@H](CCC(=O)O)[C@H]1CC[C@H]2[C@@H]3[C@H](O)C[C@@H]4C[C@H](O)CC[C@]4(C)[C@H]3CC[C@]12C", "target or system": "Nuclear receptor subfamily 2 group C member 2 ligand-binding domain", "test": "SPR imaging", "endpoint": "Kd", "result": "0.0181 nM"}
{"Structure (SMILES)": "c1coc(-c2n[nH]cc2-c2ccnc3ccccc23)c1", "target or system": "KNS1 (Candida albicans)", "test": "kinase binding, MIB/MS competition", "system": "Candida albicans lysate", "setting": "1 µM", "scale": "relative to: DMSO", "endpoint": "log2 fold change", "result": -0.18}
{"Structure (SMILES)": "Cc1cn([C@@H]2O[C@H](CO)[C@@H](O)[C@H]2O)c(=O)nc1N", "target or system": "OCI-Ly1", "setting": "0.1 µM, 120 h", "endpoint": "viability", "result": "87.9%"}
{"Structure (SMILES)": "NC(=O)c1cnc2[nH]ccc2c1N[C@@H]1[C@@H]2CC3C[C@H]1C[C@@](O)(C3)C2", "test": "flow cytometry, measured: CD8+ central memory T cells", "system": "Japanese healthy subjects, peripheral blood", "setting": "oral, 30 mg twice daily, day 7", "endpoint": "change from baseline", "result": "1.15%"}
{"Structure (SMILES)": "CC(C(=O)Nc1cccc(/N=C/c2c(O)ccc3ccccc23)c1)c1ccccc1 (stereo not shown)", "target or system": "OCI-Ly1", "setting": "0.5 µM, 120 h", "endpoint": "viability", "result": "167%"}
{"Structure (SMILES)": "NCCCOc1cc(NC(=O)c2cc(OCc3c[nH]nn3)cc(C(=O)Nc3cc(OCCCN)c4ccccc4n3)n2)nc2ccccc12", "target or system": "human telomeric G-quadruplex DNA", "test": "FRET melting", "setting": "1 µM, pH 7.4, together with: 60 mM potassium", "endpoint": "ΔTm", "result": "13.2 ± 0.8 K"}
{"Structure (SMILES)": "Oc1ccccc1-c1n[nH]cc1-c1ccnc2ccccc12", "target or system": "RAD53 (Candida albicans)", "test": "kinase binding, MIB/MS competition", "system": "Candida albicans lysate", "setting": "10 µM", "scale": "relative to: DMSO", "endpoint": "log2 fold change", "result": 2.43}
{"Structure (SMILES)": "COc1cc(C(=O)Nc2cc(OCCN3CCCC3)c3ccccc3n2)nc(C(=O)Nc2cc(OCCN3CCCC3)c3ccccc3n2)c1", "target or system": "c-kit2 G-quadruplex DNA", "test": "FRET melting", "setting": "1 µM, pH 7.4, together with: 60 mM potassium", "endpoint": "ΔTm", "result": "11.2 ± 0.6 K"}
{"Structure (SMILES)": "O=C(O)C(Cc1c[nH]c2ccccc12)N1C(=O)c2ccccc2C1=O (stereo not shown)", "target or system": "OCI-Ly1", "setting": "0.5 µM, 120 h", "endpoint": "viability", "result": "168%"}
{"Structure (SMILES)": "NCCOc1cc(NC(=O)c2cccc(C(=O)Nc3cc(OCCN)c4ccccc4n3)n2)nc2ccccc12", "target or system": "c-kit2 G-quadruplex DNA", "test": "FRET melting", "setting": "1 µM, pH 7.4, together with: 60 mM potassium", "endpoint": "ΔTm", "result": "19.7 ± 0.5 K"}
{"Structure (SMILES)": "O=C(Nc1cnc2ccccc2c1)c1cc2[nH]ccc2cc1Cl", "target or system": "COS-7", "setting": "1 µM, 24 h, 0.1% DMSO, unit not given", "scale": "relative to: vehicle control", "endpoint": "apoptotic cells", "result": "1.28 ± 0.89"}
{"Structure (SMILES)": "COc1cc(C(=O)Nc2cc(OC)c3ccccc3n2)nc(C(=O)Nc2cc(OC)c3ccccc3n2)c1", "target or system": "double-stranded DNA", "test": "FRET melting", "setting": "1 µM, pH 7.4, 60 mM potassium, together with: oligonucleotide 200 nM", "endpoint": "delta Tm", "result": "0 ± 0.2 K"}
{"Structure (SMILES)": "CC(=Nc1ccc(N=Cc2ccc3nccnc3c2)cc1)N(C)C", "target or system": "Necator americanus", "system": "infected hamsters", "setting": "oral, 50 mg/kg single", "scale": "relative to: untreated", "endpoint": "worm burden reduction", "result": "88.9 ± 7%"}
{"Structure (SMILES)": "O=Cc1ccc([N+](=O)[O-])c(OC(=O)C2CCC2)c1", "target or system": "YWHAG/RELA phospho-Ser45 p65 peptide", "test": "ternary complex formation, stabilizer, fluorescence anisotropy", "endpoint": "EC50", "result": "> 1000 µM"}
{"Structure (SMILES)": "CN(C)CCCOc1cc(NC(=O)c2cc(Cl)cc(C(=O)Nc3cc(OCCCN(C)C)c4ccccc4n3)n2)nc2ccccc12", "target or system": "double-stranded DNA", "test": "FRET melting", "setting": "1 µM, pH 7.4, 60 mM potassium, together with: oligonucleotide 200 nM", "endpoint": "delta Tm", "result": "0.3 ± 0.2 K"}
{"Structure (SMILES)": "CC1CCN(c2cc(C=O)ccc2[N+](=O)[O-])CC1", "target or system": "YWHAG/RELA phospho-Ser45 p65 peptide", "test": "ternary complex formation, stabilizer, fluorescence anisotropy", "endpoint": "EC50", "result": "> 1000 µM"}
{"Structure (SMILES)": "CC1=CC(=O)CC(C)(C)[C@@]1(O)/C=C/C(C)=C\\C(=O)O", "target or system": "OCI-Ly1", "setting": "0.5 µM, 120 h", "endpoint": "viability", "result": "8.09%"}
{"Structure (SMILES)": "NCCCOc1cc(NC(=O)c2cc(OCCN)cc(C(=O)Nc3cc(OCCCN)c4ccccc4n3)n2)nc2ccccc12", "target or system": "human telomeric G-quadruplex DNA", "test": "FRET melting", "setting": "1 µM, pH 7.4, together with: 60 mM potassium", "endpoint": "ΔTm", "result": "35.1 ± 0.9 K"}
{"Structure (SMILES)": "O=C([O-])c1ccccc1O.[Na+]", "target or system": "Nuclear receptor subfamily 2 group C member 2 ligand-binding domain", "test": "SPR imaging", "endpoint": "Kd", "result": "15.7 nM"}
{"Structure (SMILES)": "Nc1cc(F)ccc1NC(=O)/C=C/c1cnn(C/C=C/c2ccccc2)c1", "target or system": "OCI-Ly1", "setting": "0.1 µM, 120 h", "endpoint": "viability", "result": "202%"}
{"note": "A few entries again:"}
{"Structure (SMILES)": "O=C(Nc1cc(OCCN2CCCC2)c2ccccc2n1)c1cc(Cl)cc(C(=O)Nc2cc(OCCN3CCCC3)c3ccccc3n2)n1", "target or system": "human telomeric G-quadruplex DNA", "test": "FRET melting", "setting": "1 µM, pH 7.4, together with: 60 mM potassium", "endpoint": "ΔTm", "result": "24.3 ± 0.6 K"}
{"Structure (SMILES)": "O=C([C@@H](Cc1cccc(C(F)(F)F)c1)NS(=O)(=O)c1cc(F)c2c(c1)CCNC2)N1CCCC1", "target or system": "OCI-Ly1", "setting": "0.5 µM, 120 h", "endpoint": "viability", "result": "117%"}
{"Structure (SMILES)": "O=C(O)CNC(=O)Cc1ccccc1", "system": "ventricular cardiomyocytes, C57BL/6 mouse", "setting": "dose not given, 0.368 s", "endpoint": "sarcomere length", "result": "1.72 µm"}
{"Structure (SMILES)": "CCCCc1nc2cc(/C=C/C(=O)NO)ccc2n1CCN(CC)CC", "target or system": "OCI-Ly1", "setting": "1 µM, 120 h", "endpoint": "viability", "result": "1.96%"}
